Experimental data pooled from the literature.
Every numbered part comes from another study and shows a few of its results, in no order. Changes are numbered by the printed parent chain.

Block 1
Target: NFIL3, bZIP domain (human)
Method: DHFR protein complementation
Medium: yeast
Setting: single substitutions, most at no-binding floor
Baseline: wild-type JUN-FOS pair
Direction: higher = stronger binding
Starting sequence: JUN, bZIP domain (human); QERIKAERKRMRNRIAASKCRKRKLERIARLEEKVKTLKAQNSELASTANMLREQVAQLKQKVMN; partner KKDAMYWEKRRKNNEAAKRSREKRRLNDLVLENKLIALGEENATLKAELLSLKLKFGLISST
With `E32R` the binding fitness was -1.42 natural log.
`E33L` gave a binding fitness of -1.31 natural log.
`L52Q` gave a binding fitness of -1.5 natural log.
With `M51C` the binding fitness was -1.49 natural log.
For `T48E`, the binding fitness was -1.47 natural log.
For `S43R`, the binding fitness was -1.45 natural log.
The binding fitness of `A49M` is reported as -1.29 natural log.
`A40F` has a binding fitness of -1.55 natural log.

Block 2
Target: Histone acetyltransferase KAT6A, both winged helices, GST fusion (KAT6A, Homo sapiens, UniProt Q92794, residues 1-181)
Method: protein binding microarray
Molecule type: double-stranded DNA, one strand shown
Medium: in vitro
Concentration: not given
Setting: 8-mer, flanks averaged, mean of 2 arrays, mostly near background
Baseline: not given
Direction: higher = stronger binding
Target sequence (chain): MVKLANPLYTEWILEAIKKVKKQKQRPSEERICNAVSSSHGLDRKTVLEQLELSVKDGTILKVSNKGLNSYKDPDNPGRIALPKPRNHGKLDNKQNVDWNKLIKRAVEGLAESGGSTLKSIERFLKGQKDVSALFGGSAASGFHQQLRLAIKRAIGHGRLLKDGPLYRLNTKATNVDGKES
For `ACGTGTTG`, the E-score was 0.0137.
`CCTACTCA` gave an E-score of -0.0994.
For `AATGGAAG`, the E-score was -0.0115.
The E-score of `ACAATTTA` is reported as -0.0517.
The E-score of `CAAGGCAC` is reported as -0.193.
The E-score of `GCGCTTAA` is reported as 0.199.
With `CCGTGGTC` the E-score was 0.109.
`GATTGCCC` has an E-score of -0.0527.

Block 3
Target: Alpha-1A adrenergic receptor (ADRA1A, Homo sapiens, UniProt P35348)
Read-out: ligand displacement
Concentration: 10 µM
Target sequence (P35348 1-466): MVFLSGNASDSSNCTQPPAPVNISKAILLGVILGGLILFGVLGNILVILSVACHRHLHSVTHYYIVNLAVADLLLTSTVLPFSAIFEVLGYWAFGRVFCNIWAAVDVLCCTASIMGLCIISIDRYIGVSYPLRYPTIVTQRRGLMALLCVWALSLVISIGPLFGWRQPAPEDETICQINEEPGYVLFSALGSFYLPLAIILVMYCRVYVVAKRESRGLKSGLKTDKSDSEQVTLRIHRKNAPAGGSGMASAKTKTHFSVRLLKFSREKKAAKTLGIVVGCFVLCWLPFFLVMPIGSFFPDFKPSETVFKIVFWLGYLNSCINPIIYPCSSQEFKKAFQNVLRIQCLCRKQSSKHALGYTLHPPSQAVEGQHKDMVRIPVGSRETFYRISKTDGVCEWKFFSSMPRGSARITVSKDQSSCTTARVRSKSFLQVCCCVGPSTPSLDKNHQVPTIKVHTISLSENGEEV
For `Nc1nc(NCc2ccccc2)nc(-c2ccccc2CO)n1`, the inhibition was 25.5%.
With `COc1cccc(NC(=O)c2nc3scc(CN(C)Cc4ccccc4)c3c(=O)[nH]2)c1` the inhibition was 12.5%.
`CNC(=N)NCCC[C@H](NC(=O)[C@H](CC(C)C)NC(=O)NNC(=O)[C@H](Cc1ccccc1)NC(=O)[C@H](CO)NC(=O)[C@H](CC(N)=O)NC(=O)[C@@H](Cc1ccncc1)NC(=O)[C@H](N)Cc1ccc(O)cc1)C(=O)N[C@@H](Cc1ccccc1)C(N)=O` has an inhibition of -9.06%.
`O=C1NC(c2ccccn2)Sc2ccccc21` (stereo not shown) has an inhibition of -9.97%.
`CS(=O)(=O)N1CCCC(NC(=O)[C@H](CCC2CCCCC2)NC(=O)c2ccc(CNC(=O)c3cnc4ccccn34)cc2)C1` (stereo partly shown) has an inhibition of 34.9%.
For `O=c1nc(-c2ccccn2)sc2ccccc12`, the inhibition was -12.5%.
With `Cn1cc(Cl)c2c(Oc3c(F)cc(Nc4cc(Cl)nc(N)n4)cc3F)ccnc21` the inhibition was -5.31%.
With `CCC(F)(F)c1cc(N2CCC(S(C)(=O)=O)CC2)nc2sc(C(N)=O)c(N)c12` the inhibition was 18.9%.
With `CCc1ccccc1C(=O)Nc1n[nH]c2c(C)c(F)c(C3C(C#N)=C(C)N(C)C(C)=C3C#N)cc12` the inhibition was 6.85%.
For `CN1CCN(c2ccnc(NCCc3ccccc3)n2)CC1`, the inhibition was 19.2%.
The inhibition of `Nc1cnc(N2CCc3cc(S(=O)(=O)Nc4c(F)cc(Cl)cc4F)cc(N4CCCC4=O)c32)nc1` is reported as -15.7%.
The inhibition of `CN(C)c1ncnc(-c2ccc3nc(Nc4cc(CN5CCN(C(=O)CC(F)(F)F)CC5)ccn4)[nH]c3c2)c1Cl` is reported as 12.8%.
The inhibition of `NC(=O)c1ccc2nc(-c3ccc(C4(N)CCC4)cc3)c(-c3ccccc3)n2n1` is reported as 39.4%.
`CC[C@H](CC(=O)O)n1c(=O)c2ncccc2n(Cc2cn(C)c3cc(C)cc(C)c23)c1=O` gave an inhibition of 0.23%.
With `N#CC1(c2ccccn2)CCN(Cc2cc(C(=O)N3CCCC3)c(=O)n3ccccc23)CC1` the inhibition was -26.4%.
The inhibition of `CNC(=O)Nc1ccc2c(c1)CC[C@]21OC(=O)N(CC(=O)N(Cc2ccc(F)cc2)[C@@H](C)C(F)(F)F)C1=O` is reported as -11.3%.
`CN([C@@H]1CCc2c(CC(=O)O)c3ccccc3n2C1)S(=O)(=O)c1ccc(F)cc1` gave an inhibition of -4.89%.

Further values, each from its own experiment
With `O=C(Nc1ccc2nc(N3CCN(c4ccccc4)CC3)cc(C(=O)O)c2c1)c1ccccc1F` the remaining compound was 84.5% (human, microsomes or S9; 2 µM, 0.5 h).

For quick reference, copied from above (block 1):
`L52Q` gave a binding fitness of -1.5 natural log.
With `M51C` the binding fitness was -1.49 natural log.
For `T48E`, the binding fitness was -1.47 natural log.
For `S43R`, the binding fitness was -1.45 natural log.
